# Results from different studies.
# Compare with care: the assays were run in different laboratories. Numbers after ± are the reported error.
# Organism: Plasmodium falciparum
SMILES,assay,test system,setting,EC50 [µM]
Cc1c(C2(c3ccc(C(F)(F)F)nc3)CC2)c[nH]c1C(=O)NC(C)c1nc[nH]n1 (stereo not shown),parasite growth,3D7,,3.3 ± 0.28
COCC(=O)N1CCC[C@H](C(=O)NCc2nc(-c3ccc(C)nc3)cs2)C1,SYBR Green growth,"asexual blood-stage parasites, 3D7",72 h,0.026 ± 0.0064
CCn1cc(Cl)c2c(Cc3ccc(N4CCN(C)CC4)nc3)n(C)nc2c1=O,parasite growth,3D7,,2.51
Cc1cc(Nc2ccnc3ccc(-c4ccc(S(=O)(=O)N5CCOCC5)cc4)cc23)sn1,"parasite growth, SYBR Green",TM91C235,,0.47
CCn1cc(C)c2c([C@H](N)c3ccc(C(F)(F)F)nc3)n(C)nc2c1=O,parasite growth,3D7,,0.0631
O=C(NCc1nc(-c2ccc(C(F)(F)F)cc2)cs1)[C@H]1CCCN(C(=O)COCCN2CCCC2)C1,SYBR Green growth,"asexual blood-stage parasites, 3D7",72 h,0.031 ± 0.015
COCC(=O)N1CCCC(C(=O)NCc2nc(-c3ccccc3)cs2)C1 (racemic),,Dd2 bulk culture after selection,"concentration not given, intermittent drug pressure, pulse 1",0.12
COc1ccc(-c2c(C)nn3c(N)c(C#N)cnc23)cc1OC,"parasite growth, [3H]-hypoxanthine incorporation",Dd2,72 h,0.295
O=S(=O)(c1ccc(-c2ccc3nccc(Nc4cncs4)c3c2)cc1)N1CCOCC1,"parasite growth, SYBR Green",TM91C235,,> 20
CCn1cc(C2CC2)c2c([C@H](O)c3cnc(C(F)(F)F)c(Cl)c3)n(C)nc2c1=O,parasite growth,3D7,,0.0046
Cc1c(-c2n[nH]c3cc(C(F)(F)F)ccc23)c[nH]c1C(=O)NC(C)c1cc(C(N)=O)[nH]n1 (stereo not shown),parasite growth,3D7,,2.7
CCn1cc(C2CC2)c2c(Cc3cnc(C(F)(F)F)c(OC)c3)n(C)nc2c1=O,parasite growth,3D7,,0.0158
Cc1noc(C)c1Nc1ccnc2ccc(-c3ccc(S(=O)(=O)N4CCOCC4)cc3)cc12,"parasite growth, SYBR Green",W2,,> 20
NCCOCC(=O)N1CCC[C@H](C(=O)NCc2nc(-c3ccc(C(F)(F)F)cc3)cs2)C1,SYBR Green growth,"asexual blood-stage parasites, 3D7",72 h,0.021 ± 0.0055
C[C@H]1[C@@H](O)O[C@@H]2O[C@@]3(C)CC[C@H]4[C@H](C)CC[C@@H]1[C@@]24OO3,,NF54,"72 h, stage V gametocytes",0.039
CCOC(=O)c1cn(CC)c2cc(N3CCC(C)CC3)c(F)cc2c1=O,"parasite growth, [3H]hypoxanthine incorporation",NF54,72 h,0.047
O=C(Nc1ccc(CNc2ncnc3ccccc23)cc1)c1ccc(Cl)c(F)c1,"parasite growth, LDH colorimetric",3D7 Hyp1-Nluc,72 h,1.55
N#Cc1ccc(-c2csc(CNC(=O)[C@H]3CCCN(C(=O)COCCF)C3)n2)cc1,SYBR Green growth,"asexual blood-stage parasites, 3D7",72 h,0.0041 ± 0.00068
Cc1c(Cc2ccc(C(F)(F)F)nc2)c[nH]c1C(=O)N[C@@H](C)C(N)=O,parasite growth,3D7,,> 10
CCN1CCN(Cc2ccc(Nc3nc4cc(Oc5ccnc(NC(=O)C6CCN(C)CC6)c5)ccc4n3C)cc2C(F)(F)F)CC1,"parasite growth, SYBR Green I",Dd2,72 h,0.4 ± 0.01
Cn1nc2c(=O)n(C3CC3)ncc2c1[C@](O)(c1ccc(C(F)(F)F)c(Cl)c1)C1CC1,parasite growth,3D7,,0.0019
Cc1ccc(N(c2ccc(NC(=O)CN(C)c3ccccc3N3CCCC3=O)cc2)C(C)C)cc1,female gamete formation,NF54 stage V gametocytes,48 h,0.464
Cc1cnnc(Nc2ccnc3ccc(-c4ccc(S(=O)(=O)N5CCOCC5)cc4)cc23)c1,"parasite growth, SYBR Green",W2,,2.8
CCOCC(=O)N1CCC[C@H](C(=O)NCc2nc(-c3ccccc3)cs2)C1,SYBR Green,3D7,72 h,0.037 ± 0.0032
COc1ccc(Nc2ccnc3ccc(-c4ccc(S(=O)(=O)N5CCOCC5)cc4)cc23)cc1Cl,"parasite growth, SYBR Green",D6,,0.11
CC(=O)Nc1cc(Oc2ccc3nc(Nc4ccc(F)cc4F)n(C)c3n2)ccn1,"parasite growth, SYBR Green I",Dd2,72 h,> 5
O=C(NCc1nc(-c2ccccc2)cs1)[C@H]1CCCN(C(=O)c2ccco2)C1,SYBR Green growth,"asexual blood-stage parasites, 3D7",72 h,0.38 ± 0.06
Cc1c(Cc2ccc(C(F)(F)F)nc2)c[nH]c1C(=O)N[C@@H](C)CO,parasite growth,3D7,,2.1
CCn1cc(-c2nc(C)no2)c(=O)c2cc(F)c(N3CCC(Cc4ccccc4)CC3)cc21,"parasite growth, [3H]hypoxanthine incorporation",RF12,72 h,0.001
CCN1CCN(Cc2ccc(Nc3nc4nc(Oc5ccnc(NC(C)=O)c5)ncc4[nH]3)cc2C(F)(F)F)CC1,"parasite growth, SYBR Green I",Dd2,72 h,0.8 ± 0.1
COc1cc(C(=O)N(C)C)ccc1-c1cc2nccc(-c3ccc4ccncc4c3)c2o1,[3H]-hypoxanthine incorporation,Dd2,72 h,0.221
COc1ccc(Nc2ccnc3ccc(-c4ccc(S(=O)(=O)N5CCOCC5)cc4)cc23)cc1C,"parasite growth, SYBR Green",D6,,0.26
CCn1cc(-c2nc(C)no2)c(=O)c2cc(F)c(N3CCC(C)CC3)cc21,"parasite growth, [3H]hypoxanthine incorporation",RF12,72 h,0.005
COCC(=O)N1CCC[C@H](C(=O)NCc2nc(-c3ccc(-c4ccccn4)cc3)cs2)C1,SYBR Green growth,"asexual blood-stage parasites, 3D7",72 h,0.027 ± 0.005
CCn1ccc2c(Cc3ccc(C(F)(F)F)nc3)n(C)nc2c1=O,parasite growth,3D7,,0.631
CCOCC(=O)N1CC[C@@H](C)[C@H](C(=O)NCc2nc(-c3ccc(C)nc3)cs2)C1 (racemic),SYBR Green growth,"asexual blood-stage parasites, 3D7",72 h,0.089 ± 0.019
CC/N=C(\c1ccc(OC)c(OC)c1)N1CCCc2cc(C3=NNC(=O)SC3C)ccc21 (stereo not shown),"parasite growth, LDH colorimetric",3D7 Hyp1-Nluc,72 h,2.04
Cn1nc2c(=O)n(C3CC3)cnc2c1[C@](O)(c1cnc(C(F)(F)F)c(Cl)c1)C(F)(F)F,"parasite growth, parasite reduction ratio",3D7,,0.0006
CCN1CCN(Cc2ccc(Nc3nc4cnc(Oc5ccnc(NC(C)=O)c5)nc4n3C)cc2C(F)(F)F)CC1,"parasite growth, SYBR Green I",Dd2,72 h,1.4 ± 0.2
Cc1nnc(Nc2ccnc3ccc(-c4ccc(S(=O)(=O)N5CCOCC5)cc4)cc23)nc1C,"parasite growth, SYBR Green",TM91C235,,0.68
CCN(c1ccc(C)cc1)c1ccc(NC(=O)CN(C)c2ccccc2N2CCCC2=O)cn1,male gamete formation,NF54 stage V gametocytes,48 h,0.41
Cc1cc(Nc2ccc(S(F)(F)(F)(F)F)cc2)n2nc(C(C)(F)F)nc2n1,,,72 h,0.0023
C[C@H]1[C@@H](C(=O)NCc2nc(-c3ccc(C#N)cc3)cs2)CCCN1C(=O)[C@H]1CCC(=O)O1,SYBR Green growth,"asexual blood-stage parasites, 3D7",72 h,0.0055 ± 0.00012
O=S(=O)(c1ccc(-c2ccc3nccc(Nc4cnccn4)c3c2)cc1)N1CCOCC1,"parasite growth, SYBR Green",TM91C235,,> 20
CCn1cc(Cl)c2c(Cc3ccc(N4CCOCC4)nc3)n(C)nc2c1=O,parasite growth,3D7,,0.398
COc1ccc(NC(=O)N2CCCCN3[C@H](COCCC(=O)O)[C@H](c4ccc(C#Cc5ccccc5)cc4)[C@@H]3C2)cc1,blood-stage growth inhibition,Dd2,,0.023

# Excerpt of the above:
SMILES,assay,test system,setting,EC50 [µM]
C[C@H]1[C@@H](C(=O)NCc2nc(-c3ccc(C#N)cc3)cs2)CCCN1C(=O)[C@H]1CCC(=O)O1,SYBR Green growth,"asexual blood-stage parasites, 3D7",72 h,0.0055 ± 0.00012
COc1ccc(NC(=O)N2CCCCN3[C@H](COCCC(=O)O)[C@H](c4ccc(C#Cc5ccccc5)cc4)[C@@H]3C2)cc1,blood-stage growth inhibition,Dd2,,0.023
Cc1nnc(Nc2ccnc3ccc(-c4ccc(S(=O)(=O)N5CCOCC5)cc4)cc23)nc1C,"parasite growth, SYBR Green",TM91C235,,0.68
COCC(=O)N1CCCC(C(=O)NCc2nc(-c3ccccc3)cs2)C1 (racemic),,Dd2 bulk culture after selection,"concentration not given, intermittent drug pressure, pulse 1",0.12
CCN1CCN(Cc2ccc(Nc3nc4cnc(Oc5ccnc(NC(C)=O)c5)nc4n3C)cc2C(F)(F)F)CC1,"parasite growth, SYBR Green I",Dd2,72 h,1.4 ± 0.2
